Measured values of several laboratories.
Numbered parts are unrelated; each lists some results of a single study. Positions count from the first letter of the parent shown.

Sample 1
Target: Fragile X messenger ribonucleoprotein 1, C-terminal low-complexity region (Fmr1, Mus musculus, UniProt P35922)
Technique: RNA Bind-n-Seq
Form: RNA
Sample: in vitro
Tested at: 200 nM
Setting: whole 134-nt RNA, ends assumed
Added: 150 mM KCl
Relative to: input library
Direction: higher = stronger binding
Endpoint: log2 enrichment
Constant ends, left off below: GGGAGUUCUACAGUCCGACGAUC … UGGAAUUCUCGGGUGUCAAGG
GUCCUGUGCUACACAUCGUAUGUACCGAAUCGGGGUUUUUUUGGGGUGGGGUUUGGGGAAAGUAUUAUGUUACGCCGUUCGGAUCUGCAC: 0.797
AGUCCUGUGCUACACAUCGUAUGUACCGAAUCGGGAAAAGGGGAAAAGGGAAAAGGGAAAGUAUUAUGUUACGCCGUUCGGAUCUGCACU: 0.142
CUCAAGUCCUGUGCUACACAUCGUAUGUACCGAAUCGGGAAGGGAAGGGGAAGGAAAGUAUUAUGUUACGCCGUUCGGAUCUGCACUUCC: -0.0143
AGUCCUGUGCUACACAUCGUAUGUACCGAAUCGGUUUUUGGAAAAAGGUUUUUUUGGAAAGUAUUAUGUUACGCCGUUCGGAUCUGCACU: -1.34
CCUCAAGUCCUGUGCUACACAUCGUAUGUACCGAAUCGGGCCGGCCGGGCCGGAAAGUAUUAUGUUACGCCGUUCGGAUCUGCACUUCCA: -0.121
ACUAUGCAGGUGGGCAUCUUUGGGAAGUGGGGCAAGGGGGGGAUAGGGAGGGGGGUAACACUUUGGGAACAGGUGGUCCCAGGUCGUUUC: 0.705
AAGUCCUGUGCUACACAUCGUAUGUACCGAAUCGGGUUUUGGUUUUGGGGUUUUGGGAAAGUAUUAUGUUACGCCGUUCGGAUCUGCACU: -0.0112
ACCAUGCAGGUGGGCAUCUUUGGGAAGUGGGGCAAGGGGGGGAUAGGGAGGGGGGUAACACUUUGGGAACAGGUGGUCCCAGGUCAUUUC: 0.69
CCUCAAGUCCUGUGCUACACAUCGUAUGUACCGAAUCGGAGGUUUGGAAAGGAAAGUAUUAUGUUACGCCGUUCGGAUCUGCACUUCCAG: -0.00432
UCAAGUCCUGUGCUACACAUCGUAUGUACCGAAUCGGAGGUUUUUGGAAAAAGGAAAGUAUUAUGUUACGCCGUUCGGAUCUGCACUUCC: -0.953
CCUCAAGUCCUGUGCUACACAUCGUAUGUACCGAAUCGGGGUGGUGGGGUGGAAAGUAUUAUGUUACGCCGUUCGGAUCUGCACUUCCAG: 0.617
GUCCUGUGCUACACAUCGUAUGUACCGAAUCGGUUUUUUUGGAAAAAAAGGUUUUUGGAAAGUAUUAUGUUACGCCGUUCGGAUCUGCAC: -1.2
UGGCCCUGGAGGCAUGCGGGGAGGAAGAGGUGGCCUCAUGGAUCGUGGUGGUCCCGGUGGAAUGUUCAGAGGUGGCCGUGGUGGAGACAG: 0.0173
UGGGAGGUGGAUUUUGUUUAUUUUUUUAGCUGAUUUCCAGGGGUGGGAAUUUUUUUUUAAUAUGUGUCAUGAAUAAAGUUGUUUUUGAAA: 0.256

Sample 2
Target: RNA binding protein fox-1 homolog 2, RRM domain, GST-SBP tag (RBFOX2, Homo sapiens, UniProt O43251-10, residues 100-194)
Technique: RNA Bind-n-Seq
Form: RNA
Sample: in vitro
Tested at: 365 nM
Setting: natural RNA segment, single round, ends assumed
Relative to: no-protein control
Direction: higher = stronger binding
Endpoint: RBNS enrichment (R)
Constant ends, left off below: GGGAGUUCUACAGUCCGACGAUC … UGGAAUUCUCGGGUGCCAA
Construct (chain): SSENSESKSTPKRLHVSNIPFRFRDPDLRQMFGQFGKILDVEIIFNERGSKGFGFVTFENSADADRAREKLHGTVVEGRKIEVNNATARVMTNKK
AAAGCUUUUCUUACAGAAAACCAUCACAGCGACAUUACCUCAUGUUUGUAUGUUUAGUUUUGUGUCUCGUAACAGUGUUCACAUUUGUGAUUCUGAUGUCAGUAUUGUGU: 0.438
UGCACCUAUUCUGUAGUUGCAGCUGAUGCCUGAAUGUAUCCUAGCUGACAAAUUAUUGAUUAAUAAGAACUUGAAUUUCUGGAAGAUUCUUACUGUUAACCAAAUUUUGA: 0.41
UUUUUAACCUUCUUUUUGCAAAUGUCUUCAGGGAACUGAGCUAAUACUUUUUUUUUUUCUUGAUGUUUUCUUGAAAAGCCUUUCUGUUGCAACUAUGAAUGAAAACAAAA: 0.743
AAUUGCUAUUUUUAUAGCUGAUAUAGUUACACCUCAAGCCCCUCAGGGGUAACAACUAACAAACACCCAAACUGUUUGGAUUGAUUGCUUUAAAAAACAAACCUGGCUCU: 0.304
ACACAAGCUAAUCUGUACCUUUAUAUAUAUGUGUGUGUACAUAUAUACAUGUAUAAACUGUAUAGUGUACAUGUUAAUGAUUUAUCAGUAUGCCCCGAAUUCCUAGUGCA: 3.92
UGGAAAACCUCUCCACUGGAGAGGUUUCAUCUCUGAGAGGUUUUGUAAUAAUAGUGUAAGUUCAGUAAAUCCAGUCCAAAUUCUCAUCACAUGUAUUAUUUGAUACUAAA: 0.783
CUGUAUUUUAUGUAUGCUUUACUGGUAAGUGUGCCAAUAAUAAACUGUGUUAAUGACCAAAGUAAGUAAUCUGGCUGUUGGUGUGAGUACCUGUGAAUCCAUCUGCUCAC: 2.35
GGGGUCCUGGCCACCUCCUAAGCCACUAACGCCACCUUGCCACCUUGUCCCAGUUGUCCAAAACAGCUGGAACUUGUCUUCACCGCCCAGGGCACCGCCUCCCCGUGUCC: 0.45
CAAACACGGGCAUCCCGGGGAAAGCUGGGAGUUUGGUUCCUGGCACAUUGCAAUCACUUGAUUGUGAGUCCUUGGGAGCAAAUGCCUGAUGCUGUAUUUUCACAACUCUG: 0.224
ACAGGGACCUUCUGCACUCCAUCCAUAAUAGCCUUUGGUACCUUCCAGAGGAGUCCUUCCCGAGAGCUGGCAAGUCUUUGAGCUGUAGCUUGAAUGGGCUGUCGGGGGAC: 1.23
GCCAGUCCCCCUGCCCCAGGGCUCCCGGCUAUGGGGGCACUGAGGACCAGCCAUUGAGGGGUGGACCCUCAGAAGGCGUCACAACAACCUGGUCACAGGACUCUGCCUCC: 0.282
AGCCCUUUUAAAUUUUUUUAUUAUAAACAAAAUGAAGAGAACCCUGUGAGCCUGGUCCUUCUAGCAACCCUCAGUUAAGAUCCUGAGGGACAGGUGCAGCAGCAGCUGGC: 0.413

Sample 3
Target: CCNE2, cyclin fold, Cln2 fusion (human)
Technique: yeast growth competition, sequencing
Sample: yeast
Setting: weak parent motif
Relative to: not given
Direction: higher = stronger binding
Endpoint: normalised enrichment score
Starting sequence: CDT1 docking peptide (human); PPARRRLRLSVDE; partner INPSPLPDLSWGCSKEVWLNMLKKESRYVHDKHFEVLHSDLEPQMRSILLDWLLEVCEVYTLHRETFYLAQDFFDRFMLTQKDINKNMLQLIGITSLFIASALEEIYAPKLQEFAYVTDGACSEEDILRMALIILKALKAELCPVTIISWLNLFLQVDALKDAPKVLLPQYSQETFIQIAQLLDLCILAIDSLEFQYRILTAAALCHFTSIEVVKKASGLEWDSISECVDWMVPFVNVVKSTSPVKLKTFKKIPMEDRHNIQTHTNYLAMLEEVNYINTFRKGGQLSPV
PPARRRLRFSVDE [L9F]: 3.49
PPARRRLRLSADE [V11A]: 0.643
PPARRRARLSVDE [L7A]: 1.54
PPARARLRLSVDE [R5A]: -0.271
PPARRRLRASVDE [L9A]: 0.336
PPARRRLALSVDE [R8A]: 1.15
PPARRRLRLSVAE [D12A]: 1.58

Sample 4
Target: Histone acetyltransferase KAT6A, winged helix 2, GST fusion (KAT6A, Homo sapiens, UniProt Q92794, residues 85-181)
Technique: protein binding microarray
Form: double-stranded DNA, one strand shown
Sample: in vitro
Tested at: not given
Setting: 8-mer, flanks averaged, mean of 2 arrays, mostly near background
Relative to: not given
Direction: higher = stronger binding
Endpoint: E-score
Target sequence (chain): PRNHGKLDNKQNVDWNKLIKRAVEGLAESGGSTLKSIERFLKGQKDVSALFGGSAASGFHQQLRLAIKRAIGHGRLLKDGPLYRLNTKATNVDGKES
GATGCCAC: 0.0629
ATCCCAAT: -0.0486
ACTCAGAA: 0.0963
AAAGACGT: -0.153
CAGATTCC: 0.0339
CCCGTGCC: -0.0325
GATCAAAA: 0.00513
AAGGCCTT: -0.31
CATCGTAA: 0.0731
AGGCTTTC: -0.00264
CCCACCGA: -0.00409
CTCGTCCA: 0.155
GACCGACA: -0.0657
GCCATGAC: -0.0843
CAGTAGCA: -0.0747
AAATGGTT: -0.113
ATCCGAAG: -0.0786

Sample 5
Target: Interferon regulatory factor 7, full length, phosphomimetic (IRF7, Homo sapiens, UniProt Q92985, residues 1-503, S471D/S472D/S475D/S476D/S477D/S483D/S484D/S487D)
Chain of UniProt Q92985 (whole entry, unmodified, looked up): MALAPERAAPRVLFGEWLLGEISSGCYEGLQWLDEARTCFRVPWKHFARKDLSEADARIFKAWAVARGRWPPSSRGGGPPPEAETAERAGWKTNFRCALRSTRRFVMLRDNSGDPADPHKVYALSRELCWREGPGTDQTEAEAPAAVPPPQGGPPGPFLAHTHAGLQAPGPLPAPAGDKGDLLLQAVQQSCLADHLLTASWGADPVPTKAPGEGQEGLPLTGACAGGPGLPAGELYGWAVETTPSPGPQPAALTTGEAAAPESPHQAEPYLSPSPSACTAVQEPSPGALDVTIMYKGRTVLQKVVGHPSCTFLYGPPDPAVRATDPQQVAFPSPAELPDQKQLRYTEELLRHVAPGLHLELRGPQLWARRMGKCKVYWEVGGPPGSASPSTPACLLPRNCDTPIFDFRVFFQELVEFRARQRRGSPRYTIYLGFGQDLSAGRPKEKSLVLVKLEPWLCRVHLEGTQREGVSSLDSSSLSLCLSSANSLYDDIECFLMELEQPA
Technique: protein-binding microarray
Form: double-stranded DNA, one strand shown
Sample: in vitro
Tested at: 2200 nM top
Setting: 60-bp whole probe
Added: salmon DNA 0.4 mg/ml
Relative to: random background probes
Direction: higher = stronger binding
Endpoint: fitted relative affinity
Constant ends, left off below: GCCTAGCAC … GTCTTGATTCGCTTGACGCTGCTG
GACGGTATCCTTTTTCTGACGTGCTAG: 1.1 z-score
TCAATACTGATTTCCACACTGTGCTAG: 1.07 z-score
GACGGAATCGGTATCGGGACGTGCTAG: 0.335 z-score
GACGGTAACCTTATCCTGACGTGCTAG: 0.459 z-score
ATTACTCCCCAACTCGCCTTGTGCTAG: 1.69 z-score
TCATACCTGTATATCTTACTGTGCTAG: 1.28 z-score
TTAGGTTTCATTCTCCTTTAGTGCTAG: 3.29 z-score
GACGGACTGGGTTTCGGGAAGTGCTAG: 0.26 z-score
TATCTTATCCTATCAGTTTAGTGCTAG: 1.43 z-score
GTCACTCTCAGAATCTCTCAGTGCTAG: 0.891 z-score
TCAGCTTTGCAGATAAAACTGTGCTAG: -0.127 z-score
CTAGTTTTTACTTTCTGAATGTGCTAG: 4.45 z-score
TAATTTTTACTTTCTGAATGGTGCTAG: 4.37 z-score
TCATGATCCATTTTGGTACTGTGCTAG: 1.32 z-score
ATCTTCATGAAATTTTAGTAAGTGCTA: -0.394 z-score
GGTCTTTTCGCTTTCTTTACGTGCTAG: 7.2 z-score
GCTGGTCTCTAACTCAAGATGTGCTAG: 0.255 z-score
GACGGTCTCCTAGTGCTGACGTGCTAG: -0.106 z-score
TTAGGACTGGGGTTTGGGTTAGTGCTA: -0.183 z-score
CTTTAACTTATTCTCTACTTGTGCTAG: 1.1 z-score

For quick reference, copied from above (sample 1):
ACCAUGCAGGUGGGCAUCUUUGGGAAGUGGGGCAAGGGGGGGAUAGGGAGGGGGGUAACACUUUGGGAACAGGUGGUCCCAGGUCAUUUC: 0.69
UGGGAGGUGGAUUUUGUUUAUUUUUUUAGCUGAUUUCCAGGGGUGGGAAUUUUUUUUUAAUAUGUGUCAUGAAUAAAGUUGUUUUUGAAA: 0.256
CCUCAAGUCCUGUGCUACACAUCGUAUGUACCGAAUCGGGCCGGCCGGGCCGGAAAGUAUUAUGUUACGCCGUUCGGAUCUGCACUUCCA: -0.121
UCAAGUCCUGUGCUACACAUCGUAUGUACCGAAUCGGAGGUUUUUGGAAAAAGGAAAGUAUUAUGUUACGCCGUUCGGAUCUGCACUUCC: -0.953
